Measurements gathered from unrelated publications.
Protocols differ between the studies behind these lines. Values joined by “and” are separate records of one study, mostly repeats; a detail may differ. Numbers after ± are the reported error.
U2AF2: U2AF2 148-342 (Homo sapiens, UniProt P26368)
Chain of UniProt P26368 (whole entry, looked up): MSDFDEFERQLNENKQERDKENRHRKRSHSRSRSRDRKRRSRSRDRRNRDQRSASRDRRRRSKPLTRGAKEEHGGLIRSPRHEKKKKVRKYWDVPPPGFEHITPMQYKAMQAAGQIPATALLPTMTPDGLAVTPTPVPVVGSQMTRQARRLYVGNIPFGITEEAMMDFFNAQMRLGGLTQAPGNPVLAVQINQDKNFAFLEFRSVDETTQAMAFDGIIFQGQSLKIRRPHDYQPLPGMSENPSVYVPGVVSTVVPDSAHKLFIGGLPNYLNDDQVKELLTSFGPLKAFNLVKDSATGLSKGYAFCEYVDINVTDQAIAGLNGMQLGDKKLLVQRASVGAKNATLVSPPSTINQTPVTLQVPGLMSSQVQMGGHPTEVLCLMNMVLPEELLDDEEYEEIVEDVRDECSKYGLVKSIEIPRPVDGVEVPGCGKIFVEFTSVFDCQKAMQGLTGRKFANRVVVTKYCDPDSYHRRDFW
B1: PP2A activator (human); sequence looked up; chain AEGERQPPPDSSEEAPPATQNFIIPKKEIHTVPDMGKWKRSQAYADYIGFILTLNEGVKGKKLTFEYRVSEMWNEVHEEKEQAAKQSVSCDECIPLPRAGHCAPSEAIEKLVALLNTLDRWIDETPPVDQPSRFGNKAYRTWYAKLDEEAENLVATVVPTHLAAAVPEVAVYLKESVGNSTRIDYGTGHEAAFAAFLCCLCKIGVLRVDDQIAIVFKVFNRYLEVMRKLQKTYRMEPAGSQGVWGLDDFQFLPFIWGSSQLIDHPYLEPRHFVDEKAVNENHKDYMFLECILFITEMKTGPFAEHSNQLWNISAVPSWSKVNQGLIRMYKAECLEKFPVIQHFKFGSLLPIHPVTSG
B2: human anillin; sequence looked up; chain MDPFTEKLLERTRARRENLQRKMAERPTAAPRSMTHAKRARQPLSEASNQQPLSGGEEKSCTKPSPSKKRCSDNTEVEVSNLENKQPVESTSAKSCSPSPVSPQVQPQAADTISDSVAVPASLLGMRRGLNSRLEATAASSVKTRMQKLAEQRRRWDNDDMTDDIPESSLFSPMPSEEKAASPPRPLLSNASATPVGRRGRLANLAATICSWEDDVNHSFAKQNSVQEQPGTACLSKFSSASGASARINSSSVKQEATFCSQRDGDASLNKALSSSADDASLVNASISSSVKATSPVKSTTSITDAKSCEGQNPELLPKTPISPLKTGVSKPIVKSTLSQTVPSKGELSREICLQSQSKDKSTTPGGTGIKPFLERFGERCQEHSKESPARSTPHRTPIITPNTKAIQERLFKQDTSSSTTHLAQQLKQERQKELACLRGRFDKGNIWSAEKGGNSKSKQLETKQETHCQSTPLKKHQGVSKTQSLPVTEKVTENQIPAKNSSTEPKGFTECEMTKSSPLKITLFLEEDKSLKVTSDPKVEQKIEVIREIEMSVDDDDINSSKVINDLFSDVLEEGELDMEKSQEEMDQALAESSEEQEDALNISSMSLLAPLAQTVGVVSPESLVSTPRLELKDTSRSDESPKPGKFQRTRVPRAESGDSLGSEDRDLLYSIDAYRSQRFKETERPSIKQVIVRKEDVTSKLDEKNNAFPCQVNIKQKMQELNNEINMQQTVIYQASQALNCCVDEEHGKGSLEEAEAERLLLIATGKRTLLIDELNKLKNEGPQRKNKASPQSEFMPSKGSVTLSEIRLPLKADFVCSTVQKPDAANYYYLIILKAGAENMVATPLASTSNSLNGDALTFTTTFTLQDVSNDFEINIEVYSLVQKKDPSGLDKKKKTSKSKAITPKRLLTSITTKSNIHSSVMASPGGLSAVRTSNFALVGSYTLSLSSVGNTKFVLDKVPFLSSLEGHIYLKIKCQVNSSVEERGFLTIFEDVSGFGAWHRRWCVLSGNCISYWTYPDDEKRKNPIGRINLANCTSRQIEPANREFCARRNTFELITVRPQREDDRETLVSQCRDTLCVTKNWLSADTKEERDLWMQKLNQVLVDIRLWQPDACYKPIGKP

Substance	target or system	assay	test system	conditions	scale	measurement	result
colistin	Klebsiella pneumoniae	broth microdilution	clinical isolate RKI-No_107/15			MIC	≤ 0.5 µg/mL
CCAAUUCCA (ssRNA)	U2AF2	sequencing of bound RNA	RNA	motif only		Kd	3.62 µM
B1 (PP2A activator)	CYB5R4 knockout human cells	PP4 interaction, 3xFLAG-PP4C IP-MS		concentration not given	relative to: CYB5R4 KO over parental	log2 fold change	3.4
QDEKVKESYV	construct, MBP fusion, human SCRIB, PDZ 3-4	automated holdup	peptide, purified PDZ protein	concentration not given, unit not given	relative to: biotin control resin, higher = stronger binding	binding intensity	0.376
AAUUUUCCU (ssRNA)	U2AF2	sequencing of bound RNA	RNA	motif only		Kd	2.93 µM
Peginesatide	UT7/EPO	RT-qPCR, measured: AREG		concentration not given, 90 min	relative to: vehicle	mRNA fold induction	2.7 fold
B2 (human anillin)	PP6C (human)	co-immunoprecipitation, IP-MS	CYB5R4 knockout cells	concentration not given	relative to: CYB5R4 knockout over parental	log2 fold change	-0.9
PMESGICTIV	construct, MBP fusion, human SCRIB, PDZ 3-4	automated holdup	peptide, crude extract	concentration not given, corrected by standard peak, unit not given	relative to: biotin control resin, higher = stronger binding	binding intensity	0.0824
human G3BP1	CYB5R4 knockout human cells	PP4 interaction, 3xFLAG-PP4C IP-MS		concentration not given	relative to: CYB5R4 KO over parental	log2 fold change	-1.33
colistin	Pseudomonas aeruginosa		PA1802 PER-producing isolate			MIC	0.5 µg/mL
human HADHA	CYB5R4 knockout human cells	PP4 interaction, 3xFLAG-PP4C IP-MS		concentration not given	relative to: CYB5R4 KO over parental	log2 fold change	-0.35
MTVCNASQRQAHAQATAVSL	H1993	phage binding	peptide		relative to: targeting over control phage	selectivity ratio	4 ± 2.3
cotadutide		metabolomics, measured: hepatic phenylalanine	ob/ob mice on AMLN diet, NASH model, liver	dose not given		metabolite level	1.06 ± 0.04 scaled intensity
milbemycin oxime	Saccharomyces cerevisiae	cell growth	Pdr5 deleted, Cdr1 overexpressed	2^-5.381 µg/mL, with: fluconazole 10 µg/mL		OD600	0.064 and 0.084 and 0.059
GSGAGICTIV	construct, MBP fusion, human SCRIB, PDZ 3-4	automated holdup	peptide, crude extract	concentration not given, corrected by standard peak, unit not given	relative to: biotin control resin, higher = stronger binding	binding intensity	0.111
